Assay results collected from several papers.
Each numbered part is a random draw from the data of one study; scales do not carry over between parts. Values joined by “and” are separate records of one study, mostly repeats; a detail may differ.
Chain of UniProt Q9H3Y6 (whole entry, looked up): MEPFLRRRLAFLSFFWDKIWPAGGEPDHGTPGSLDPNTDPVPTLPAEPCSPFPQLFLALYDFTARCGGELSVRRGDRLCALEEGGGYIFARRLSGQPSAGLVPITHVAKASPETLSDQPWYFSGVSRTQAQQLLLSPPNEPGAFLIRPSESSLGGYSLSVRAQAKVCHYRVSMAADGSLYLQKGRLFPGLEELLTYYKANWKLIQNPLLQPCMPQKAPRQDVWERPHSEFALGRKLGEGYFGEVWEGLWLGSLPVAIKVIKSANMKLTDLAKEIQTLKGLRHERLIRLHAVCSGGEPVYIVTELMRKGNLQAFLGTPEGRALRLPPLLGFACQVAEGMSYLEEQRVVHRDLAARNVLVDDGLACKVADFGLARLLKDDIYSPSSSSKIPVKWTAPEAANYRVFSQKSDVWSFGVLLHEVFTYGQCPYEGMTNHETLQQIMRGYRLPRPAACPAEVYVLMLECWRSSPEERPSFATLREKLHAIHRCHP
Chain of UniProt P10721 (whole entry, unmodified, looked up): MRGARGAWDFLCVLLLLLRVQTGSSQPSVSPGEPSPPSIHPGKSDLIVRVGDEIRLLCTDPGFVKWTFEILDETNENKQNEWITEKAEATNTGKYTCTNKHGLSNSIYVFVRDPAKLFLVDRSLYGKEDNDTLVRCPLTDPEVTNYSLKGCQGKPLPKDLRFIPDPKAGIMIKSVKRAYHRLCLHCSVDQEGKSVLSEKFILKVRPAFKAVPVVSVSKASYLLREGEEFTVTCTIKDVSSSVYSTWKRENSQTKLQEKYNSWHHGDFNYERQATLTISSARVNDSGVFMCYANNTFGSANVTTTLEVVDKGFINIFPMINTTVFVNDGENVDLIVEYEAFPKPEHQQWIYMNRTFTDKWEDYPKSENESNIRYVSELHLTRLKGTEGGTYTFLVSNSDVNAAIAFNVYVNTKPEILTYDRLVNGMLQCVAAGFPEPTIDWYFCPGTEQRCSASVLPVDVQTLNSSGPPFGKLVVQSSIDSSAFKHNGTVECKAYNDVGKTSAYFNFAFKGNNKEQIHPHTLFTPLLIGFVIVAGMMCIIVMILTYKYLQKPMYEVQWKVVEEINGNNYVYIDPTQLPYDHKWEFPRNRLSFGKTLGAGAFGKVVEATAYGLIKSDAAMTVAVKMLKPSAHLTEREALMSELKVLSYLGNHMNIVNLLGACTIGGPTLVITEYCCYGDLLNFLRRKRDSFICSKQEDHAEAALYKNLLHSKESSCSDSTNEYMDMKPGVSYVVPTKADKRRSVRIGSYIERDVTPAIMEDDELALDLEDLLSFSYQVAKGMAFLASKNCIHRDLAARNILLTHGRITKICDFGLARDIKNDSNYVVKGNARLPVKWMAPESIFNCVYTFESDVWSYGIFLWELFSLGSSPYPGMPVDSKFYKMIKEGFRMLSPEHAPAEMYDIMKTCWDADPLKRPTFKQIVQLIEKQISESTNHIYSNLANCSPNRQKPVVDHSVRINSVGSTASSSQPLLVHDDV
Chain of UniProt Q13188 (whole entry, looked up): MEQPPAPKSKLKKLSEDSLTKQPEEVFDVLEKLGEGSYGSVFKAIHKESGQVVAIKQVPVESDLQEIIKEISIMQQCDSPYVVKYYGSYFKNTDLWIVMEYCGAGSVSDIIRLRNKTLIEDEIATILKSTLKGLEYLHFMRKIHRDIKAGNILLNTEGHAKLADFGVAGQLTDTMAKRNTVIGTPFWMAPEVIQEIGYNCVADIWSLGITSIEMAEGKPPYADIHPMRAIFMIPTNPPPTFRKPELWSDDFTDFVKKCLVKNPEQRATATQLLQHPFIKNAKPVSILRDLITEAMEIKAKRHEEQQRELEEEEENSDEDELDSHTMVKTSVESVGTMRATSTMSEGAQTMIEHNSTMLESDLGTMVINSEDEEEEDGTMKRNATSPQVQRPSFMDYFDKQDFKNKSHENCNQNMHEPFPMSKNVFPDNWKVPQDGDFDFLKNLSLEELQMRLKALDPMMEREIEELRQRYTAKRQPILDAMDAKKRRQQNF
Chain of UniProt Q16620 (whole entry, looked up): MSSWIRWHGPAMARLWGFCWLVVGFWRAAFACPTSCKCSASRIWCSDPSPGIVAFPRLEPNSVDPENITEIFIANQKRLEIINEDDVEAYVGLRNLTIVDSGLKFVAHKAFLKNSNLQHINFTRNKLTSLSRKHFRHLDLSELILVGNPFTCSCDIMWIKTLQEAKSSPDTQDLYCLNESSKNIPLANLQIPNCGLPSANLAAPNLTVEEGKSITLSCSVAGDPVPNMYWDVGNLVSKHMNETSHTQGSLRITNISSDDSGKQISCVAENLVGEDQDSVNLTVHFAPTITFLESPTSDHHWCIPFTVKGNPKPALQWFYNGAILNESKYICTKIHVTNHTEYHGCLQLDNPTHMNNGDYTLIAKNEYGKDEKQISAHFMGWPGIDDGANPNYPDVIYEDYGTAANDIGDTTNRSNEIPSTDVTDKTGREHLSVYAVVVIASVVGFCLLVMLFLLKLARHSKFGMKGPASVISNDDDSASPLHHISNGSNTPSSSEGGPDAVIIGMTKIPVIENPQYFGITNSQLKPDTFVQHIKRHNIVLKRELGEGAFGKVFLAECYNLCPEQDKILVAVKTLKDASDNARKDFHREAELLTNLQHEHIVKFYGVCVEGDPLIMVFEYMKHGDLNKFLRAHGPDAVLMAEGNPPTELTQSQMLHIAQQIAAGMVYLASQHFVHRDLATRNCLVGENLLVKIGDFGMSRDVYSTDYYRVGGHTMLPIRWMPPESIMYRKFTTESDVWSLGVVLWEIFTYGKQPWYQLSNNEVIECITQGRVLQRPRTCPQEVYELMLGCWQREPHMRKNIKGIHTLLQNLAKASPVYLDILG
Chain of UniProt Q8TDC3 (whole entry, looked up): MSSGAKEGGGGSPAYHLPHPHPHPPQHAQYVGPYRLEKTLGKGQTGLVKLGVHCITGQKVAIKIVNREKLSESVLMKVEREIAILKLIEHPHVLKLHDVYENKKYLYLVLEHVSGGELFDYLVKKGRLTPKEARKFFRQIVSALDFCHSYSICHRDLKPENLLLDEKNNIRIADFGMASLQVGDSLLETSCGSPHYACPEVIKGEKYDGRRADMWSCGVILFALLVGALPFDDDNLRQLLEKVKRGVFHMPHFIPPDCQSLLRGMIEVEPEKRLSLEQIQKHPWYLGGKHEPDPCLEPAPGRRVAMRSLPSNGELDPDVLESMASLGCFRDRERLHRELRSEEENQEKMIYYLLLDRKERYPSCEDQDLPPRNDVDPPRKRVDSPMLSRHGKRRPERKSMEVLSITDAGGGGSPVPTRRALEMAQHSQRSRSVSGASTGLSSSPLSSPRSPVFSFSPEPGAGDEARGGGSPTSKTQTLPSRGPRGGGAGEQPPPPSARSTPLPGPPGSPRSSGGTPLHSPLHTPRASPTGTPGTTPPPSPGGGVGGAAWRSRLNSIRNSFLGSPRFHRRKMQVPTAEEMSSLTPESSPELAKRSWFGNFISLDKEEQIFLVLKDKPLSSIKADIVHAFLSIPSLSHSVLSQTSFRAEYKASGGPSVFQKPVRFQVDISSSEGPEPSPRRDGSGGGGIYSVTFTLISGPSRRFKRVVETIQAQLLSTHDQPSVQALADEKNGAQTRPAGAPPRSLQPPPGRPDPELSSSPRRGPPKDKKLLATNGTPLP

Study 1 — action: antagonist
Target: Beta-1 adrenergic receptor (ADRB1, Homo sapiens, UniProt P08588)
Chain of UniProt P08588 (whole entry, looked up): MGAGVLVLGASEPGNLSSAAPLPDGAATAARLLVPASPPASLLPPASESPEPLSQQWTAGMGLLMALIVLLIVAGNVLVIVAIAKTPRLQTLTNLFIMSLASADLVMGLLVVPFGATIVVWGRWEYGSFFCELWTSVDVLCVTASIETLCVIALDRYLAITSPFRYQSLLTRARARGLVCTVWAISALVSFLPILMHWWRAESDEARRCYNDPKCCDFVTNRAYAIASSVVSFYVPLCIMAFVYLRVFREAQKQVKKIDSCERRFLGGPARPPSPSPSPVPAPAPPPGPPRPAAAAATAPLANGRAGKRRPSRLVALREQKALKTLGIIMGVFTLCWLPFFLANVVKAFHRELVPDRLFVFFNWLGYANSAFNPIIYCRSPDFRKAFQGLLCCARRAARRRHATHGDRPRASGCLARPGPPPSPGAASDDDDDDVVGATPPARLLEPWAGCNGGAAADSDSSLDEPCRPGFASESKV
| Structure (SMILES) | IC50 [µM] |
| --- | --- |
| COc1ccc(CN2CC[C@@H]3OCC(=O)N(Cc4c[nH]c5ccccc45)[C@H]3CC2)cc1O | ≥ 100 |
| O=C(NCCc1nccc(-c2ccccc2)n1)c1ccc2cccc(F)c2n1 | ≥ 100 |
| Cc1noc2c(-c3cccnc3)cc(-c3ccc(F)cc3)nc12 | ≥ 100 |
| CCn1c(=O)cc(N2CCN(c3cccc(Cl)c3)CC2)[nH]c1=O | ≥ 100 |
| O=C(Nc1ccc(-c2csc3c(=O)cc(N4CCOCC4)oc23)cc1)c1ccc(F)c(F)c1Nc1ccc(I)cc1F | ≥ 100 |
| Clc1ccccc1-c1cc(C2CCN(Cc3cc4n(n3)CCNC4)CC2)[nH]n1 | 31.6 |
| O=C(O)Cc1ccc(OCCNC[C@H](O)c2ccccc2)cc1 | ≥ 100 |
| COc1ccccc1-c1nc(N2CCOCC2)cc2c1CN(Cc1cnn(C)c1)C2=O | ≥ 100 |
| O=C(c1cc(N2CCN(c3ccccc3)CC2)nc2ccccc12)N1CCOCC1 | ≥ 100 |
| COc1ccc([S+](=O)([O-])N2CCN(c3ccccc3OC)CC2)cc1C | ≥ 100 |

Study 2 — technique: Incucyte 3D growth; concentration: 30 µM; reading: higher = more growth
SMILES: CC(C)(C(=O)O)[C@H](NC(=O)Cc1cccc(I)c1)c1ccc2oc(=O)[nH]c2c1
| cell line | setting | spheroid area |
| --- | --- | --- |
| A375 | 342.52 h | 1.86e+08 a.u. and 1.74e+08 a.u. and 1.7e+08 a.u. and 1.68e+08 a.u. and 1.66e+08 a.u. and 1.93e+08 a.u. |
| MEL-JUSO | 366.52 h | 4.53e+07 a.u. and 5.64e+07 a.u. and 4.23e+07 a.u. and 4.47e+07 a.u. and 3.53e+07 a.u. and 4.21e+07 a.u. |
| PC-9 | 186 h | 1.67e+09 a.u. and 1.54e+09 a.u. and 1.61e+09 a.u. and 1.68e+09 a.u. and 1.55e+09 a.u. and 1.65e+09 a.u. |
| KP-4 | 282 h | 9.17e+07 a.u. and 4.96e+07 a.u. and 1.08e+08 a.u. and 6.97e+07 a.u. and 7.11e+07 a.u. and 2.7e+07 a.u. |
| PC-9 | 60 h | 4.96e+08 a.u. and 4.68e+08 a.u. and 4.65e+08 a.u. and 4.88e+08 a.u. and 4.76e+08 a.u. and 4.75e+08 a.u. |
| A375 | 330.52 h | 1.7e+08 a.u. and 1.97e+08 a.u. and 1.9e+08 a.u. and 1.69e+08 a.u. and 1.77e+08 a.u. and 1.68e+08 a.u. |
| KP-4 | 132 h | 1.57e+07 a.u. and 1.99e+07 a.u. and 1.98e+07 a.u. and 1.96e+07 a.u. and 2.11e+07 a.u. and 1.88e+07 a.u. |

Study 3 — read-out: cell-free assay; technique: competition with immobilised ligand; concentration: 1 µM
SMILES: CNC(=O)Nc1ccc2c(c1)CC[C@@]21OC(=O)N(CC(=O)N(Cc2ccc(F)cc2)[C@@H](C)C(F)(F)F)C1=O
| target | remaining binding |
| --- | --- |
| Ribosomal protein S6 kinase alpha-4, C-terminal kinase domain (RPS6KA4, Homo sapiens, UniProt O75676) | 72% |
| MAP2K2 (Homo sapiens, UniProt P36507) | 96% |
| NTRK2 (Homo sapiens, UniProt Q16620) | 95% |
| KIT (Homo sapiens, UniProt P10721, L576P) | 100% |
| CIT (Homo sapiens, UniProt O14578) | 92% |
| EPHA5 (Homo sapiens, UniProt P54756) | 96% |
| Tyrosine-protein kinase ABL1, phosphorylated (ABL1, Homo sapiens, UniProt P00519, M351T) | 100% |
| BRSK1 (Homo sapiens, UniProt Q8TDC3) | 97% |
| EGFR (Homo sapiens, UniProt P00533, del752-759) | 63% |
| STK3 (Homo sapiens, UniProt Q13188) | 100% |
| DYRK1A (Homo sapiens, UniProt Q13627) | 64% |
| SRMS (Homo sapiens, UniProt Q9H3Y6) | 83% |
| EGFR (Homo sapiens, UniProt P00533, L861Q) | 94% |
| DCLK3 (Homo sapiens, UniProt Q9C098) | 83% |
| PIK3C2B (Homo sapiens, UniProt O00750) | 100% |

Study 4 — Compound: C=CCc1ccc(O)c(-c2ccc(O)c(CC=C)c2)c1; read-out: chloride current
ANO1 del476-501/F628A: Anoctamin-1 (ANO1, Homo sapiens, UniProt Q5XXA6, del476-501/F628A)
Chain of UniProt Q5XXA6 (whole entry, unmodified, looked up): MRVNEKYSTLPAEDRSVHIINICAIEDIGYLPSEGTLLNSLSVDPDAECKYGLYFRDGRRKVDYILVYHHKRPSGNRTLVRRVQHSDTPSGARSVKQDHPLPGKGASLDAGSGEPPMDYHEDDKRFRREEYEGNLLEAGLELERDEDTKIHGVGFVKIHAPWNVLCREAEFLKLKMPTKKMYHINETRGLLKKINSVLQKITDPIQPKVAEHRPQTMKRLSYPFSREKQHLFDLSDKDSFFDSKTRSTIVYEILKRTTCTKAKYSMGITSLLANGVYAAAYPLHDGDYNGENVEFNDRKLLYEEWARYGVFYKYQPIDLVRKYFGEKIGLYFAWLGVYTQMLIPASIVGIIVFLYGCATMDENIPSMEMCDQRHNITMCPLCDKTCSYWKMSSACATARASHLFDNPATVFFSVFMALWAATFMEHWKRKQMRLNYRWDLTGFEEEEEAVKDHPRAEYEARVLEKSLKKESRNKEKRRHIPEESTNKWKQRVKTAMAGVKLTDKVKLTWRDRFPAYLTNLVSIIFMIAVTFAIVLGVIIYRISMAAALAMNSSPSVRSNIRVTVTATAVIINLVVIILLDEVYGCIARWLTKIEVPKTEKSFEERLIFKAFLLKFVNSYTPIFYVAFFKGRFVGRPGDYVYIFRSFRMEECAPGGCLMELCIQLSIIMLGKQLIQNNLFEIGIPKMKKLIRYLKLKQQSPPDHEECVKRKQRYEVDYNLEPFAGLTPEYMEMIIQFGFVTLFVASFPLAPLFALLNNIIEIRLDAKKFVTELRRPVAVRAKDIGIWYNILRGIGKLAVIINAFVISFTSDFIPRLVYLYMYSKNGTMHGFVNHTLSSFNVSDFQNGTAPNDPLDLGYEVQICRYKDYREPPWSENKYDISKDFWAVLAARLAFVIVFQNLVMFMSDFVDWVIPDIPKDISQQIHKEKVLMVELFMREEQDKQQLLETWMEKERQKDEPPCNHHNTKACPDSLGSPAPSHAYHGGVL
ANO1 del476-501: Anoctamin-1 (ANO1, Homo sapiens, UniProt Q5XXA6, del476-501)
ANO1 del476-501/E649A/R541A: Anoctamin-1 (ANO1, Homo sapiens, UniProt Q5XXA6, del476-501/E649A/R541A)
ANO1 del476-501/R541A: Anoctamin-1 (ANO1, Homo sapiens, UniProt Q5XXA6, del476-501/R541A)
| target | assay | setting | normalized current |
| --- | --- | --- | --- |
| ANO1 del476-501/F628A | whole-cell voltage clamp | 30 µM, concentration-response at -60 mV, with: 4 µM Ca2+ | -0.287 |
| ANO1 del476-501 | whole-cell voltage clamp | 10 µM, wild type, concentration-response at 80 mV, with: 4 µM Ca2+ | 0.227 |
| ANO1 del476-501/E649A/R541A | inhibitor, inside-out patch clamp | 10 µM, R515A/E623A mutant at -80 mV | -0.362 |
| Anoctamin-1 (ANO1, Homo sapiens, UniProt Q5XXA6) | inside-out patch clamp | 10 µM, membrane voltage 100 mV | 0.818 |
| ANO1 del476-501 | whole-cell voltage clamp | 3 µM, wild type, I-V at 40 mV, with: 4 µM Ca2+ | 0.315 |
| ANO1 del476-501/R541A | inhibitor, inside-out patch clamp | 10 µM, R515A mutant at -100 mV | -0.663 |
| ANO1 del476-501/F628A | whole-cell voltage clamp | 1 µM, concentration-response at -100 mV, with: 4 µM Ca2+ | -0.805 |
| ANO1 del476-501 | whole-cell voltage clamp | 1 µM, wild type, concentration-response at -40 mV, with: 4 µM Ca2+ | -0.325 |
| ANO1 del476-501/E649A/R541A | inside-out patch clamp | 10 µM, membrane voltage 40 mV | 0.223 |
| ANO1 del476-501/F628A | whole-cell voltage clamp | 30 µM, concentration-response at 40 mV, with: 4 µM Ca2+ | 0.19 |
| ANO1 del476-501/R541A | inside-out patch clamp | 10 µM, membrane voltage 60 mV | 0.388 |
